Results gathered from unrelated publications.
Each line is one published result; not all experiments were run side by side.
FGFR2: Fibroblast growth factor receptor 2 (FGFR2, Homo sapiens, UniProt P21802)
Sequence of UniProt P21802 (whole entry, unmodified, looked up): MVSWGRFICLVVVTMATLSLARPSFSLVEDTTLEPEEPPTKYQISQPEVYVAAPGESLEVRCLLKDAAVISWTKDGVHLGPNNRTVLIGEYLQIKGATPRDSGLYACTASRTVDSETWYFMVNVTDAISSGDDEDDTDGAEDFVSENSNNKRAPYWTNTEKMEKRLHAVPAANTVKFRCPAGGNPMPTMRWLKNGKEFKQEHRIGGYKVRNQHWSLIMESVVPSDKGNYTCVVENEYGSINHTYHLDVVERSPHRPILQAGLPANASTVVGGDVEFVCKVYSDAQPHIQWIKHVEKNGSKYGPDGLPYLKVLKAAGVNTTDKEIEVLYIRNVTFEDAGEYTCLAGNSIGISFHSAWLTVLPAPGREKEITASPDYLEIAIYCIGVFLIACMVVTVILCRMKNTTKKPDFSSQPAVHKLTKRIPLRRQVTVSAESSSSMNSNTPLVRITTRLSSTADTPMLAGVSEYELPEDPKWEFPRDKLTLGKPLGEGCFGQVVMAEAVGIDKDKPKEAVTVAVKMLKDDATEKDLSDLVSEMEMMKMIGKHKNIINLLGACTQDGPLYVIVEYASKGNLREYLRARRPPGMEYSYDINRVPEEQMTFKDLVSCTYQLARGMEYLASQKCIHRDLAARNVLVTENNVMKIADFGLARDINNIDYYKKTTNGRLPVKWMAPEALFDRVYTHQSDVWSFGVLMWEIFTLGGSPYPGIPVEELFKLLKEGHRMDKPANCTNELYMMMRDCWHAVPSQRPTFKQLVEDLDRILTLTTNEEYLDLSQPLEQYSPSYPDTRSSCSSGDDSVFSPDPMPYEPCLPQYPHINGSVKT

COc1ccc(NC(=O)Nc2ccc3c(c2)C(=O)N(C(C)CO)CC(C)C(CN(C)Cc2ccc4c(c2)OCO4)O3)cc1 (centres unmarked)  remaining activity (FGFR2; kinase activity; 0.03 µM; relative to: control): 101%
Cc1nc2c(F)cc(-c3nc(Nc4ccc(CNC(=O)CCCCCCC(=O)NO)cc4)ncc3F)cc2n1C(C)C  inhibition (FGFR2; enzyme activity, inhibitor; 1 µM): 53%
CC(=O)N1c2ccc(-c3ccc(CNC(=O)c4cn5cc(-c6cnc(N)nc6)nc(N6CCOCC6)c5n4)cc3)cc2CC[C@@H]1C  remaining binding (FGFR2; KINOMEscan; 10 µM): 96%
CN1CCN(Cc2ccc(-c3ccc(CO[C@H]4CCC[C@@H]4NC(=O)c4cc(-c5cnn(C)c5)cnc4N)cc3)cc2)CC1  inhibition (FGFR2; enzyme activity, inhibitor; 0.1 µM): -8%
CNC(=O)C1CCN(c2cc(C)c(F)cc2NC(=O)c2ccc(-c3cc(O)ccc3C)c(C)c2)CC1  remaining binding (FGFR2; binding, competition with immobilised ligand; 1 µM): 71%
NC(=O)[C@@H](O)C[C@H]1CCc2sc3ncnc(O[C@H]4CC[C@H](N5CCOCC5)CC4)c3c21  inhibition (FGFR2; enzyme activity, inhibitor; 10 µM): 33%
Cc1cccc(O[C@H]2CCC[C@@H](C(C)CNCc3ccncc3)C2)c1 (relative stereo)  inhibition (FGFR2; cell-free assay; 10 µM): -2%
CNS(=O)(=O)Nc1nccc(Cc2c(C)c3ccc(Oc4ncccc4F)cc3oc2=O)c1F  remaining binding (FGFR2; cell-free assay, competition with immobilised ligand; 10 µM): 89%
CC(C)=CC1OC(C)(C)C2C=C3C(=O)C(Cl)=CC(O)C3C3C(O)C4OC4C(=O)C132 (centres unmarked)  remaining binding (FGFR2; cell-free assay, competition with immobilised ligand; 10 µM): 70%
C=CC(=O)Nc1cccc(-c2cnc3[nH]cc(C(=O)NC(C)(C)C)c3n2)c1  inhibition (FGFR2; enzyme activity, inhibitor; 0.1 µM): 40%
Cc1cnc2nc1Nc1cccc(c1)COC/C=C/COCc1cc(ccc1OCCN1CCOCC1)N2  remaining binding (FGFR2; binding; 0.1 µM): 79%
COc1cc(Nc2nccc(-c3cnn4nc(OC)ccc34)n2)cc(C(F)(F)F)c1  remaining binding (FGFR2; binding, competition with immobilised ligand; 1 µM): 100%
O=C=[N][Ru-4]123([n]4c5ccc(O)cc5c5c6c(c7cc(F)c[n+]1c7c54)C(=O)NC6=O)[S+]1CC[S+]2CC[S+]3CC1 (centres unmarked)  remaining activity (FGFR2 (Homo sapiens, UniProt P21802, N549H); enzyme activity; 100 nM, human enzyme, together with: 10 µM ATP; relative to: untreated): 102%
CN1CCN(Cc2ccc(NC(=O)c3cccc(C#Cc4cnc(N)c5ncccc45)c3)cc2C(F)(F)F)CC1  remaining binding (FGFR2; cell-free assay, competition with immobilised ligand; 50 nM): 7.2%
